Published values collected from several papers.
Numbers after ± are the reported error.

[2H]C1([2H])C[C@@H](C[C@@H](C#N)NC(=O)[C@@H]2[C@@H]3[C@H](CN2C(=O)[C@@H](NC(=O)C(F)(F)F)C(C)(C)C)C3(C)C)C(=O)N1 — half-life (human liver microsomes; microsomes 0.5 mg/mL): 1.95 h
[2H]C([2H])(c1ccccc1)C([2H])([2H])N1C(=O)CC(=O)N(C([2H])([2H])C([2H])([2H])c2ccccc2)C1=O — half-life (metabolic stability; mouse liver microsomes): 0.233 h
O=[N][Fe]1([N]=O)[S](CCO)[Fe]([N]=O)([N]=O)[S]1CCO — half-life (degradation; simulated intestinal fluid; pH 6.8, 37 °C): 8.1 ± 0.7 h
Cc1cc(-c2ccccc2)c2ccc3c(-c4ccccc4)cc(C)nc3c2n1.[Cl-].[Cl-].[Ru+2].c1ccc(-c2ccccn2)nc1.c1ccc(-c2ccccn2)nc1 — half-life (water; blue light 100 mW/cm^2 460 nm): ~0.0333 h
CC[C@H](C)[C@H](NC(=O)[C@H](CC(N)=O)NC(=O)[C@H](CC(N)=O)NC(=O)[C@H](CCCNC(=N)N)NC(=O)[C@H](CC(N)=O)NC(=O)[C@H](CCCNC(=N)N)NC(=O)[C@H](CCCCN)NC(=O)[C@@H](NC(=O)[C@H](CC(N)=O)NC(=O)[C@H](CCSC)NC(=O)[C@H](CC(C)C)NC(=O)[C@H](Cc1c[nH]c2ccccc12)NC(=O)[C@@H]1CSCc2ccc(cc2)-c2ccc(cc2)CSC[C@H](NC(=O)[C@H](CCC(=O)O)NC(=O)[C@H](CC(=O)O)NC(=O)[C@H](CC(C)C)NC(=O)[C@H](Cc2ccc(O)cc2)NC(=O)[C@H](CCCCN)NC(=O)[C@H](CO)NC(=O)[C@H](Cc2ccc(O)cc2)NC(=O)[C@H](CC(=O)O)NC(=O)[C@H](CO)NC(=O)[C@@H](NC(=O)[C@H](Cc2ccccc2)NC(=O)[C@@H](NC(=O)CNC(=O)[C@H](CCC(N)=O)NC(=O)[C@@H](CO)NC(=O)[C@@H](N)Cc2c[nH]cn2)[C@@H](C)O)[C@@H](C)O)C(=O)N[C@@H](C)C(=O)N[C@@H](C)C(=O)N[C@@H](CCCCN)C(=O)N[C@@H](CCC(=O)O)C(=O)N[C@@H](Cc2ccccc2)C(=O)N[C@@H]([C@@H](C)CC)C(=O)N1)[C@@H](C)O)C(=O)N[C@@H](C)C(N)=O — half-life (mouse serum): ~13 h
Cc1nc(-c2ccc(NC(=O)c3cccs3)cc2Cl)no1 — half-life (chemical stability; buffer; 5 µM, pH 2.0, 37 °C): 0.436 ± 0.125 h
CC(=O)N[C@H](CC(=O)O)C(=O)N[C@H](Cc1c[nH]c2ccccc12)C(=O)N[C@H](Cc1ccccc1)C(=O)N[C@H](CCCCN)C(=O)N[C@H](C)C(=O)N[C@H](Cc1ccccc1)C(=O)N[C@H](Cc1ccc(O)cc1)C(=O)N[C@H](CC(=O)O)C(=O)N[C@H](CCCCN)C(=O)N[C@@H](C(=O)N[C@H](C)C(=O)N[C@H](CCC(=O)O)C(=O)N[C@H](CCCCN)C(=O)N[C@H](Cc1ccccc1)C(=O)N[C@H](CCCCN)C(=O)N[C@H](CCC(=O)O)C(=O)N[C@H](C)C(=O)N[C@H](Cc1ccccc1)C(N)=O)C(C)C — half-life (statin-treated high-risk CHD patients, plasma; oral, 100 mg daily, day 13, median, detected subjects): 0.46 h
CCC(=O)N[C@@H](C)C(=O)OCC(=O)N[C@@H](C)C(=O)O — half-life (water; pH 2, 37 °C): 758 h
[2H]C1([2H])CC[C@@H](C[C@@H](C#N)NC(=O)[C@@H]2[C@@H]3[C@H](CN2C(=O)[C@@H](NC(=O)C(F)(F)F)C(C)(C)C)C3(C)C)C(=O)N1 — half-life (human liver microsomes; microsomes 0.5 mg/mL): 0.592 h
C[C@H](N)C(=O)OCCOCn1cnc2c(=O)[nH]c(N)nc21 — half-life (DPBS; pH 7.4, 34 °C, chemical hydrolysis): 2.88 ± 0.07 h
CC(=O)N[C@@H](Cc1cnc[nH]1)C(=O)N[C@H](Cc1ccccc1)C(=O)N[C@@H](CCCNC(=N)N)C(=O)N[C@@H](Cc1c[nH]c2ccccc12)C(=O)NCCCOCCOCCOCCCNC(=O)COCC(N)=O — half-life (LC-MS/MS; mouse serum; 10 µM, 37 °C): 12.5 h
CC[C@H](C)[C@H](NC(=O)CNC(=O)CNC(=O)c1ccc2c(c1)C(=O)OC21c2ccc(O)cc2Oc2cc(O)ccc21)C(=O)N[C@@H](Cc1ccc(O)cc1)C(=O)N[C@@H](C)C(=O)N(C)CC(=O)N1CCC[C@H]1C(=O)N(C)[C@@H](Cc1ccccc1)C(=O)N[C@@H](CCCCN)C(=O)N[C@@H](CCCCN)C(=O)N[C@@H](CCCCN)C(N)=O — half-life (CE-LIF; Baf/BCR-ABL cell cytosolic lysate; 1 µM, pH 7.4, 37 °C): 0.535 h
CO[C@@H](C[C@H]1C(C)=CC[C@@H]2[C@]3(C)C[C@H](O[C@@H]4O[C@@H](C)[C@H](O)[C@@H](O)[C@H]4O)[C@@H](O)C(C)(C)[C@H]3CC[C@]21C)[C@H](N)C(=O)O — half-life (simulated gastric fluid with pepsin; 1 µM, pH 1.2, 37 °C): > 8 h
Cc1cc(C)cc(OCC(N)c2ccccc2)c1 (stereo not shown) — half-life (chemical stability, HPLC; pH 7.4, 37 °C): > 720 h
C[C@@H](NC(=O)[C@H](Cc1ccccc1)NC(=O)[C@@H](CCCNC(=N)N)NC(=O)[C@H](CCCN)NC(=O)[C@@H]1CNC(=O)c2cc3cc(c2)C(=O)N[C@H](Cc2ccc4ccccc4c2)C(=O)N[C@@H](CO)C(=O)N[C@@H](CC(N)=O)C(=O)N[C@H](Cc2ccc4ccccc4c2)C(=O)N[C@@H](c2ccccc2)C(=O)N[C@@H](CCCCNC3=O)C(=O)N[C@H](Cc2ccccc2)C(=O)N[C@@H](CCC(N)=O)C(=O)N[C@H](CCCNC(=N)N)C(=O)N[C@@H](CCCNC(=N)N)C(=O)N1)C(N)=O — half-life (human serum; 37 °C): > 24 h
C[C@H](NC(=O)COC(=O)[C@H](C)NC(=O)CO)C(=O)O — half-life (water; pH 2, 50 °C): 76.8 h
Cc1ccccc1-c1cc(N2CCNCC2)ncc1N(C)C(=O)C(C)(C)c1cc(C(F)(F)F)cc(C(F)(F)F)c1 — half-life (healthy volunteers, plasma; oral, dose not given, netupitant-palonosetron fixed-dose combination): 73.6 h
CCC(C)C(N)C(=O)OC(C)OC(=O)C1=CC(N=C(N)N)C(NC(C)=O)C(C(O)C(O)CO)O1 (mixture of isomers) — half-life (hydrochlorate buffer; pH 1.2, 37 °C, chemical hydrolysis): > 4 h
CCC(CC)O[C@@H]1C=C(C(=O)OC(OC(=O)[C@@H](N)C(C)C)C(C)C)C[C@H](NC(=N)N)[C@H]1NC(C)=O (single isomer, unassigned) — half-life (acetate buffer; pH 4.5, 37 °C): stable
O=C(Nc1ccc(-c2noc(C3CC3)n2)c(Cl)c1)c1cccs1 — half-life (buffer; 5 µM, pH 10.0, 37 °C): 0.878 ± 0.207 h
O=C(Cc1cccc(I)c1)N[C@H]1CCOC1=O — half-life (TRIS buffer, 0.5% DMSO; 50 µM, pH 8, 37 °C): 2 to 3.5 h
Cc1ccccc1OCC(N)c1ccccc1 (stereo not shown) — half-life (chemical stability, HPLC; pH 7.4, 37 °C): > 720 h
Cc1cccc(C)c1OCC(=O)N[C@@H](Cc1ccccc1)[C@H](C[C@H](Cc1ccccc1)NC(=O)[C@H](C(C)C)N1CCCNC1=O)OC(=O)[C@@H](N)CC(C)C — half-life (DPBS; 50 µM, pH 5.5, 37 °C): 20 ± 0.3 h
CCC(CC)[C@H](NC(C)=O)[C@@H]1[C@H](O)[C@@H](C(=O)OCCOC(=O)[C@@H](N)C(C)C)C[C@H]1NC(=N)N — half-life (phosphate buffer; pH 4.5, 37 °C, chemical stability): 4.1 ± 0.567 h
COc1cc(-c2nc3ccc(C(=O)NCCCN4CCN(c5cccc(C)c5C)CC4)cc3n2C2CCC2)cc(OC)c1OC — half-life (human liver microsomes): < 0.5 h
Nc1nc2c(ncn2COCCOC(=O)[C@@H](N)CS)c(=O)[nH]1 — half-life (DPBS; pH 7.4, 34 °C, chemical hydrolysis): 3.1 ± 0.3 h
C#CCOCCOCCOCCOCCn1cc(C(ONC(=O)/C=C/C(C)=C/C2(C)Oc3cc(N(C)C)ccc3C2=O)(c2ccccc2)c2ccccc2)nn1 (stereo not shown) — half-life (HPLC; aqueous buffer; pH 4.3): stable
CC(C)C[C@H](NC(=O)[C@H](CO)NC(=O)[C@H](CO)NC(=O)[C@H](CC(C)C)NC(=O)[C@@H](NC(=O)[C@@H]1CCCN1C(=O)[C@H](Cc1c[nH]c2ccccc12)NC(=O)[C@H](Cc1ccc(O)cc1)NC(=O)[C@@H]1CCCN1C(=O)[C@H](CC(C)C)NC(=O)[C@H](Cc1ccc(O)cc1)NC(=O)[C@@H](N)CCCCN)C(C)C)C(=O)O — half-life (mouse serum; 3000 µM, 37 °C, EphA4-ephrin-A5 ELISA activity): ~0.6 h
CC[C@H](C)[C@H](NC(=O)CNC(=O)CNC(=O)c1ccc2c(c1)C(=O)OC21c2ccc(O)cc2Oc2cc(O)ccc21)C(=O)N[C@@H](Cc1ccc(O)cc1)C(=O)N[C@@H](C)C(=O)N(C)CC(=O)N1CCC[C@H]1C(=O)N(C)[C@@H](Cc1ccccc1)C(=O)N[C@@H](CCCCN)C(=O)N[C@@H](CCCCN)C(=O)N[C@@H](CCCCN)C(=O)N[C@@H](C)C(N)=O — half-life (CE-LIF; Baf/BCR-ABL cell cytosolic lysate; 1 µM, pH 7.4, 37 °C): 0.812 h
CC(C)(C)c1nc(-c2ccc(NC(=O)c3cccs3)cc2Cl)no1 — half-life (chemical stability; buffer; 5 µM, pH 2.0, 37 °C): 0.173 ± 0.095 h
Nc1nc2c(ncn2COCCOC(=O)[C@@H](N)CO)c(=O)[nH]1 — half-life (DPBS; pH 6.0, 34 °C, chemical hydrolysis): 226 ± 52 h
CCN(c1nc(N[C@H](CC(N)=O)C(=O)NC)nc(N2CCN(c3ccccc3C#N)CC2)n1)C1CCCCC1 — half-life (mouse plasma): 1.7 ± 0.2 h
CCC(CC)[C@H](NC(C)=O)[C@@H]1[C@H](O)[C@@H](C(=O)N[C@H](C(=O)O)[C@@H](C)CC)C[C@H]1NC(=N)N — half-life (phosphate buffer; pH 1.2, 37 °C): 43.2 ± 1.3 h
Oc1cc2nc(c1)CNCc1cc(O)cc(n1)CNC2 — half-life (mouse liver microsomes; 2 µM, added: NADPH): > 2 h
O=C(CS(=O)(=O)Cc1ccco1)C12CC3CC(CC(C3)C1)C2 — half-life (metabolic stability; human liver microsomes; 37 °C, added: NADPH): 4.28 h
CC(=O)O[C@@H]1CC[C@@]2(C)C(CC[C@]3(C)C2C(=O)C=C2C4[C@@H](C)[C@H](C)CC[C@]4(C)CC[C@]23C)[C@@]1(C)C(=O)N/N=C1/C(=O)Nc2ccccc21 (stereo partly shown) — half-life (HPLC; 0.1 M HCl; 75 µM, pH 1.4, 37 °C, simulated gastric fluid): 5.74 h
Nc1ncnc2c1ncn2C1C=CC(CO)O1 (stereo not shown) — half-life (glycosidic bond acid hydrolysis, HPLC; aqueous buffer; pH 2): ~0.333 h
CC[C@H](NC(=O)[C@H](CC(C)C)NC(=O)NCc1ccccc1)C(=O)C(=O)NCc1cccc(Cl)c1OC — half-life (loss of calpain inhibitory activity; PBS; 200 nM, room temperature, epimerisation): ~0.25 h
NC(=O)c1cnc2[nH]ccc2c1NC1C2CC3CC1CC(OS(=O)(=O)O)(C3)C2 (stereo not shown) — half-life (Japanese adults, normal hepatic function, plasma; oral, 150 mg single dose): 10.8 h
CCOC(=O)CCC(=O)Oc1ccc(/C=C/C(=O)/C=C(O)/C=C/c2ccc(OC(=O)CCC(=O)OCC)c(OC)c2)cc1OC — half-life (rat plasma; 1.5 µM, 37 °C): 0.00152 ± 0.000103 h
COc1cc(C)c(Cc2ccc(O)cc2)cc1[C@@H]1S[C@H](CO)[C@@H](O)[C@H](O)[C@H]1O — half-life (Japanese T2DM patients, plasma; 0.5 mg luseogliflozin, day 1, once daily): 24.7 ± 8.12 h
Cc1ccc(C(C)C)cc1.[Cl][Au].[Cl][Ru][Cl].c1ccc(P(CP(c2ccccc2)c2ccccc2)c2ccccc2)cc1 — half-life (NMR; DMSO-d6): ≥ 48 h
CCCN1C(=O)CCc2cc(NS(=O)(=O)Cc3ccc(C)cc3)ccc21 — half-life (LC-MS; water under UV light 8 W; 100 µM): 2.9 h

A few entries again:
Cc1cccc(C)c1OCC(=O)N[C@@H](Cc1ccccc1)[C@H](C[C@H](Cc1ccccc1)NC(=O)[C@H](C(C)C)N1CCCNC1=O)OC(=O)[C@@H](N)CC(C)C — half-life (DPBS; 50 µM, pH 5.5, 37 °C): 20 ± 0.3 h
CCC(CC)[C@H](NC(C)=O)[C@@H]1[C@H](O)[C@@H](C(=O)OCCOC(=O)[C@@H](N)C(C)C)C[C@H]1NC(=N)N — half-life (phosphate buffer; pH 4.5, 37 °C, chemical stability): 4.1 ± 0.567 h
COc1cc(-c2nc3ccc(C(=O)NCCCN4CCN(c5cccc(C)c5C)CC4)cc3n2C2CCC2)cc(OC)c1OC — half-life (human liver microsomes): < 0.5 h
Nc1nc2c(ncn2COCCOC(=O)[C@@H](N)CS)c(=O)[nH]1 — half-life (DPBS; pH 7.4, 34 °C, chemical hydrolysis): 3.1 ± 0.3 h
C#CCOCCOCCOCCOCCn1cc(C(ONC(=O)/C=C/C(C)=C/C2(C)Oc3cc(N(C)C)ccc3C2=O)(c2ccccc2)c2ccccc2)nn1 (stereo not shown) — half-life (HPLC; aqueous buffer; pH 4.3): stable
CC(C)C[C@H](NC(=O)[C@H](CO)NC(=O)[C@H](CO)NC(=O)[C@H](CC(C)C)NC(=O)[C@@H](NC(=O)[C@@H]1CCCN1C(=O)[C@H](Cc1c[nH]c2ccccc12)NC(=O)[C@H](Cc1ccc(O)cc1)NC(=O)[C@@H]1CCCN1C(=O)[C@H](CC(C)C)NC(=O)[C@H](Cc1ccc(O)cc1)NC(=O)[C@@H](N)CCCCN)C(C)C)C(=O)O — half-life (mouse serum; 3000 µM, 37 °C, EphA4-ephrin-A5 ELISA activity): ~0.6 h
